Assay results from different studies.
Compare with care: the assays were run in different laboratories. ± gives the spread as reported.

Compound | cell line | assay | test system | conditions | how to read | endpoint | value
CC[C@H](C)[C@H](NC(=O)[C@H](CCCCN)NC(=O)[C@H](C)NC(=O)[C@H](CCCNC(=N)N)NC(=O)[C@H](CCCCN)NC(=O)[C@H](CC(N)=O)NC(=O)[C@H](CCC(N)=O)NC(=O)[C@H](Cc1ccccc1)NC(=O)[C@H](Cc1c[nH]c2ccccc12)NC(=O)[C@@H](NC(=O)[C@H](CCCCN)NC(=O)[C@@H](NC(=O)[C@H](CCC(N)=O)NC(=O)[C@H](CO)NC(=O)CNC(=O)CNC(=O)CNC(=O)CNC(=O)CCCC[C@@H]1SC[C@@H]2NC(=O)N[C@@H]21)[C@@H](C)CC)[C@@H](C)CC)C(=O)N[C@@H](CCCCN)C(=O)N[C@@H](CCCCN)C(N)=O | Caov-3 | MALDI-TOF MS |  | 7 µM, 1 h, 37 °C | baseline: Caov-3 over CHO-K1 and SK-OV-3 | internalization ratio | 5
COc1cc2c(=O)cc(-c3ccccc3)oc2c2c1OC(C)(C)C=C2 | differentiated SH-SY5Y | MTT |  | 0.1 µM | baseline: control | viability | 101 ± 3.1%
CN(C(=O)CN1CCCC2=CC3CC(CN4CCCCC34)C21)c1ccc(Br)cc1 (centres unmarked) | Huh-7 | cytotoxicity |  |  |  | CC50 | > 267 µM
CN(CC(=O)N(Cc1ccc(C2CCCCC2)cc1)c1ccc(C(=O)O)cc1)S(=O)(=O)c1c(F)c(F)c(F)c(F)c1F | CD-1 mouse hepatocytes |  |  |  |  | half-life | ≤ 0.167 h
CC[C@H](C)[C@H](NC(=O)[C@H](Cc1c[nH]c2ccccc12)NC(=O)[C@H](CCCNC(=O)c1ccc2c(c1)C1(OC2=O)c2ccc(O)cc2Oc2cc(O)ccc21)NC(=O)CNC(=O)[C@H]1CCCN1C(=O)[C@@H](NC(=O)[C@H](CCCNC(=N)N)NC(=O)[C@@H](NC(=O)[C@H](Cc1c[nH]c2ccccc12)NC(=O)[C@H](CCCN)NC(C)=O)C(C)C)C(C)C)C(=O)N[C@@H](CCCNC(=N)N)C(=O)N[C@@H](CCC(N)=O)C(N)=O | OPM-2 | peptidase degradation, capillary electrophoresis | cell lysate | 10 µM, pH 7.6, 37 °C |  | half-life | 10.5 h
CCCCn1cc(C(=O)O)c(=O)c2cc(F)c3c(nnn3-c3cccc(Cl)c3)c21 | K562 | cell growth or viability, SRB |  |  |  | IC50 | 342 µM
COc1cc(C2C3C4=[N+](CCc5cc(O)c(OC)cc54)C(c4c3ccc(OC)c4OC)C2C(=O)[O-])ccc1O (single isomer, unassigned; (-)) | HEK293T-ACE2 |  |  |  |  | maximum nontoxic concentration | 100 µM
O=C1CCc2ccc(OCCCCCCSC(=S)N3CCCCC3)cc2N1 | HT-22 | CCK-8 |  | up to 12.5 µM, 24 h |  | cytotoxicity | not toxic
CC1(C)C=Cc2c(cc3oc(-c4ccccc4)cc(=O)c3c2O)O1 | differentiated SH-SY5Y | MTT |  | 1 µM | baseline: control | viability | 100 ± 4.1%
CC(=O)N(O)CCCP(=O)(O)O | L5178Y TK+/- mouse lymphoma |  |  | 2200 µg/mL, 4 h, without S9 | baseline: vehicle | relative cell count | 100%
COc1ccc2c(=O)c(OC)c(-c3ccc(OC)c(OC)c3)oc2c1 | differentiated SH-SY5Y | MTT |  | 100 µM | baseline: control | viability | 38.2 ± 1.9%
COC(=O)C1CN1S(=O)(=O)c1ccc(C)cc1 (centres unmarked) | Balb/c 3T3 fibroblasts | cytotoxicity, neutral red uptake | DMEM with 5% FBS | 24 h |  | IC50 | 46 ± 10 µM
CC(C)(O)c1cc2c(ccc3c(=O)cc(-c4ccccc4)oc32)o1 | differentiated SH-SY5Y | MTT |  | 10 µM | baseline: control | viability | 99.2 ± 4.1%
Nc1ncnc2c1c(Br)cn2[C@@H]1O[C@H](CO)[C@@H](O)[C@H]1O | MRC-5 SV2 | cytotoxicity, resazurin | medium with 5% FBS | 72 h |  | EC50 | 12 ± 2 µM

Excerpt of the above:
Compound | cell line | assay | test system | conditions | how to read | endpoint | value
CCCCn1cc(C(=O)O)c(=O)c2cc(F)c3c(nnn3-c3cccc(Cl)c3)c21 | K562 | cell growth or viability, SRB |  |  |  | IC50 | 342 µM
